Results collected from several papers.
Parts stem from different laboratories: compare values within a part only. Changes are numbered by the printed parent chain.

Series 1 — technique: DHFR PCA, deep sequencing; sample: yeast; added: (+)-ABA 4.8 µM; baseline: wild-type fitted maximum; reading: higher = stronger binding
Target: ABI1, truncated, D143A, DHFR fusion (Arabidopsis thaliana)
Setting: methotrexate growth selection, single substitutions
Starting sequence: PYL1, truncated, DHFR fusion (Arabidopsis thaliana); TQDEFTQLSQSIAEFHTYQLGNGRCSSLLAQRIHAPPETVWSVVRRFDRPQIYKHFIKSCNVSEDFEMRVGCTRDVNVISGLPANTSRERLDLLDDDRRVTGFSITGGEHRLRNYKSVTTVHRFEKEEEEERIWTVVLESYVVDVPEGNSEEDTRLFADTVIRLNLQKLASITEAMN; partner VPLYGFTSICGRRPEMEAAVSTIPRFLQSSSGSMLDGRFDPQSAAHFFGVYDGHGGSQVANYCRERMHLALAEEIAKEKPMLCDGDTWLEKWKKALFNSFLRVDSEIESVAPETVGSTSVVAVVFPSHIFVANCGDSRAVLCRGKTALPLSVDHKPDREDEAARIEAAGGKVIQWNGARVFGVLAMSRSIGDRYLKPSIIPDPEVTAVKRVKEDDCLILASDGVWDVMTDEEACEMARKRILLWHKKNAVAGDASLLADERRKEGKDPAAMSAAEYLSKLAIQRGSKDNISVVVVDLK
For `C60I`, “relative binding score” read 32.5%.
For `E14R`, “relative binding score” read 44%.
For `G148T`, “relative binding score” read 27.6%.
`Q167E`: “relative binding score” 65.6%.
`T73S`: “relative binding score” 55.7%.
For `S27W`, “relative binding score” read 1.08%.
Under “relative binding score”, `F124L` is recorded as 85.5%.
For `T160V`, “relative binding score” read 15.2%.
For `F47W`, “relative binding score” read 21.6%.
`F157S`: “relative binding score” -7.5%.

Series 2 — target: CCNB1, cyclin fold, Cln2 fusion (human); technique: yeast growth competition, sequencing; sample: yeast; setting: weak parent motif; baseline: not given; reading: higher = stronger binding
Starting sequence: GMNC docking peptide (human); KNAKRNLSSEFAN
Under “normalised enrichment score”, `L7S` is recorded as 0.000937.
For `N6K`, “normalised enrichment score” read 0.248.
`S9D`: “normalised enrichment score” 0.262.
`F11I` — result for “normalised enrichment score”: 0.238.
`K4W`: “normalised enrichment score” 0.0601.
`L7Q` — result for “normalised enrichment score”: -0.0373.
Under “normalised enrichment score”, `F11G` is recorded as 0.322.
`K4C`: “normalised enrichment score” 0.344.
`A12S`: “normalised enrichment score” 0.0753.
For `N2A`, “normalised enrichment score” read 0.0725.
For `A12M`, “normalised enrichment score” read -0.161.
Under “normalised enrichment score”, `S9Y` is recorded as 0.236.
Under “normalised enrichment score”, `L7P` is recorded as 0.142.
Under “normalised enrichment score”, `K4P` is recorded as 0.142.

Series 3 — technique: RNA Bind-n-Seq; molecule type: RNA; sample: in vitro; concentration: 200 nM; setting: whole 134-nt RNA, ends assumed; added: 150 mM LiCl; baseline: input library; reading: higher = stronger binding; library: 7-deaza-guanosine replaces G
Target: Ras GTPase-activating protein-binding protein 1, full length (G3BP1, Homo sapiens, UniProt Q13283)
Sequence of UniProt Q13283 (whole entry, looked up): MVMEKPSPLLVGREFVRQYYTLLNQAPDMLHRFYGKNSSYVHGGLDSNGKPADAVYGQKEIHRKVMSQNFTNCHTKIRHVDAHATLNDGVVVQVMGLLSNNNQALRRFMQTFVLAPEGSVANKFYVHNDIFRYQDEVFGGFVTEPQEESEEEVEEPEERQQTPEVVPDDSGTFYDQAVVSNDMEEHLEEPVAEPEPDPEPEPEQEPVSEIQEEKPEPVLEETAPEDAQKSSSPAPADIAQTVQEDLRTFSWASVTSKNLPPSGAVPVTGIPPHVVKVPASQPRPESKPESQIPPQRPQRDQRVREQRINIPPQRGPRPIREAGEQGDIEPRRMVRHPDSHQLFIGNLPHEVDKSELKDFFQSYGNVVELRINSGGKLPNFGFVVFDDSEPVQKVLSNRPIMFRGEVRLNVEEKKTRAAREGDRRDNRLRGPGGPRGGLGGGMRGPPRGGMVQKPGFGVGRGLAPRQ
Shared flanks, not repeated: GGGAGUUCUACAGUCCGACGAUC … UGGAAUUCUCGGGUGUCAAGG
`CCUGUGCUACACAUCGUAUGUACCGAAUCGGGAAAAAAGGGGAAAAAAGGAAAAAAGGGGAAAGUAUUAUGUUACGCCGUUCGGAUCUGC` gave a log2 enrichment of 0.218.
`UGAACCUUCCAAUAGCAACCAAGAAAUAAACUCUGAUGACAGACGACCCCAAUGGAGACGAGAAGACCGAAUUCCUUACCAAGACAGAGA` has a log2 enrichment of 1.22.
With `CUCAAGUCCUGUGCUACACAUCGUAUGUACCGAAUCGGGGCGGGCGGGCGGGGAAAGUAUUAUGUUACGCCGUUCGGAUCUGCACUUCCA` the log2 enrichment was 0.0567.
The log2 enrichment of `GCAGGAAGUAAAAACACAUGGAAAUGCUUCGGAUAGUGGCAGGGGUGGGGGUUGCUAAGGAAAGGGUGGGAUGGGAGUGGGUAAAGAGUU` is reported as 0.117.
With `AAGUCCUGUGCUACACAUCGUAUGUACCGAAUCGGGGUUUUGGUUUUGGUUUUGGGGAAAGUAUUAUGUUACGCCGUUCGGAUCUGCACU` the log2 enrichment was -0.124.
`UCCUGUGCUACACAUCGUAUGUACCGAAUCAAAUUUUUAAAUUUUUAAACCCCCCCAAAAAAGUAUUAUGUUACGCCGUUCGGAUCUGCA` gave a log2 enrichment of 1.47.
With `AAGUCCUGUGCUACACAUCGUAUGUACCGAAUCGGGAAAGGGAAAGGGGAAAGGGGAAAGUAUUAUGUUACGCCGUUCGGAUCUGCACUU` the log2 enrichment was 0.555.
With `CUCAAGUCCUGUGCUACACAUCGUAUGUACCGAAUCGGGUUUGGGAGGGAGGGAAAGUAUUAUGUUACGCCGUUCGGAUCUGCACUUCCA` the log2 enrichment was -0.397.
With `AGUCCUGUGCUACACAUCGUAUGUACCGAAUCGGUUUUUGGGGUUUUUGGUUUUUGGGAAAGUAUUAUGUUACGCCGUUCGGAUCUGCAC` the log2 enrichment was -0.226.
The log2 enrichment of `UGGCAGGUGGAUUUUGUUUAUUUUUUUAGCUCAUUUCCAGGGGUGGGAAUUUUUUUUUAAUAUGUGUCAUGAAUAAAGUUGUUUUUGAAA` is reported as 0.209.
The log2 enrichment of `CACAGACAACACGCACCCACACAGACACAGAGGGAAGGGGUUGGGAUGGGGACUGGGUGCACAGCAGGGCGGGGUAGGACCCCAGCCCCU` is reported as 0.298.

Other studies, line by line
`PhoQ, residues 284 288 289 292 302 303 SIHMAM` gave a fold induction of 1.55 (PhoP, residues 12 14 15 18 19 HLGGL (Escherichia coli, UniProt P23836); Sort-seq, measured: YFP reporter; E. coli; PhoQ-PhoP variant library, added: 10 µM Mg2+; baseline: high Mg2+ state, higher = stronger signaling).

Excerpt of the above (series 2):
Under “normalised enrichment score”, `S9Y` is recorded as 0.236.
For `N6K`, “normalised enrichment score” read 0.248.
Under “normalised enrichment score”, `L7P` is recorded as 0.142.
For `N2A`, “normalised enrichment score” read 0.0725.
